{"data": "Published values of several laboratories", "note": "A part holds a random share of what one study measured. Several values in a cell are separate wells, animals, samples, runs or records.", "sequence of UniProt O95819 (whole entry, looked up)": "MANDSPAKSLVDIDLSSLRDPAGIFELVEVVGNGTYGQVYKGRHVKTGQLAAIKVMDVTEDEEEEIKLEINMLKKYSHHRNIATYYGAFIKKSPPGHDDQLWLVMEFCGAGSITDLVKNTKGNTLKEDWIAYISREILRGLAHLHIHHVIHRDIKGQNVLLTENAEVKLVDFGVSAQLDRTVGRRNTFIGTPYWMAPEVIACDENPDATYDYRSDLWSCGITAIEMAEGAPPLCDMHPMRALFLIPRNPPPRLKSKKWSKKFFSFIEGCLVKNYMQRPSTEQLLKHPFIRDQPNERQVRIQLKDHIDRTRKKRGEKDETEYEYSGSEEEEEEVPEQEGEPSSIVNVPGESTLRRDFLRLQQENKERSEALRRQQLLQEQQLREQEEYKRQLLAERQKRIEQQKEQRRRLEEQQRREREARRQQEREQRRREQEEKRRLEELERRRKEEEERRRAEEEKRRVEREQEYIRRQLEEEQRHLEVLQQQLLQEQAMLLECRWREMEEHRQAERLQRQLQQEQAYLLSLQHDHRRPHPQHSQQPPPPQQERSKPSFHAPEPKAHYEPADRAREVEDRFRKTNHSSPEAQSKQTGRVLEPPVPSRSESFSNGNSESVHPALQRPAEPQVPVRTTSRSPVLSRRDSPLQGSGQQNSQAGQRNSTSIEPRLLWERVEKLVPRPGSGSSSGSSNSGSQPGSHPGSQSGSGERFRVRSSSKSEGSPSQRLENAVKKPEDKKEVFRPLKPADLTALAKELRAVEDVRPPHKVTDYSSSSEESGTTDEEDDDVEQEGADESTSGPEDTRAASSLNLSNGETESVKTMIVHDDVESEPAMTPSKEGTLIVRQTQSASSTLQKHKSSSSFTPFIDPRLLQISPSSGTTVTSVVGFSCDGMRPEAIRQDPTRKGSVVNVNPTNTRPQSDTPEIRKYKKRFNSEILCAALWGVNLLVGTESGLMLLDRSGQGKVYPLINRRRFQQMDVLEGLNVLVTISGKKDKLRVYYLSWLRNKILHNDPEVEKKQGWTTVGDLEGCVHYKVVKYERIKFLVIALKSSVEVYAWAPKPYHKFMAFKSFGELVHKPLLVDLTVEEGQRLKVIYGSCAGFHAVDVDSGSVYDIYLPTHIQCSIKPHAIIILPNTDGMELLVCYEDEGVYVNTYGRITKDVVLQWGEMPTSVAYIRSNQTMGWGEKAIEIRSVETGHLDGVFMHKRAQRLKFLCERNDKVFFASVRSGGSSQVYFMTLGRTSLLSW", "sequence of UniProt P54756 (whole entry, looked up)": "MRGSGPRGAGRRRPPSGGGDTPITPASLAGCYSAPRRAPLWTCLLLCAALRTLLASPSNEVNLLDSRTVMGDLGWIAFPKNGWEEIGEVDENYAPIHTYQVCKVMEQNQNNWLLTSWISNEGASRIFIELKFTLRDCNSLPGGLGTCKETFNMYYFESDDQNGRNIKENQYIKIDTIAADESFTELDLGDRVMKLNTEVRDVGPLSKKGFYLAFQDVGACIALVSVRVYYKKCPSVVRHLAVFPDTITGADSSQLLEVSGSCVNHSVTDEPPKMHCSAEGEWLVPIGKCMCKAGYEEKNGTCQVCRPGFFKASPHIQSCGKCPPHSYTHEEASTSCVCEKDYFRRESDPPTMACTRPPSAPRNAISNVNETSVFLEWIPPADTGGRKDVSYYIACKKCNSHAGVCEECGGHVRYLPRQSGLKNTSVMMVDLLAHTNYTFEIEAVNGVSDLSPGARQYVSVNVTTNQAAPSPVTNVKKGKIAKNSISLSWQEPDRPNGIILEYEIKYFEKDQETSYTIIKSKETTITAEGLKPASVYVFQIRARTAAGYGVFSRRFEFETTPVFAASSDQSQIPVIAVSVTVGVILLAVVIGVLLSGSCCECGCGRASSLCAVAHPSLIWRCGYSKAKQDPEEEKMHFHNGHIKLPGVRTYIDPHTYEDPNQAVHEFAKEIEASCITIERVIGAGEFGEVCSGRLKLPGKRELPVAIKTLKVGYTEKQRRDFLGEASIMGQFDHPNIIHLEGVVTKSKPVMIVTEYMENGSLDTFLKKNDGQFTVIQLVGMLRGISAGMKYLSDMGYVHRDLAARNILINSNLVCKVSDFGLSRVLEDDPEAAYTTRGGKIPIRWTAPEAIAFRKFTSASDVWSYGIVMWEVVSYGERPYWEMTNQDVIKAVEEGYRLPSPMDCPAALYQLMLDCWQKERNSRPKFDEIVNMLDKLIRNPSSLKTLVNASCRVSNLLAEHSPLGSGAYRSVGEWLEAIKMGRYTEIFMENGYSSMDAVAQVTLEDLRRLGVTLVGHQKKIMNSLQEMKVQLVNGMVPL", "sequence of UniProt P42338 (whole entry, looked up)": "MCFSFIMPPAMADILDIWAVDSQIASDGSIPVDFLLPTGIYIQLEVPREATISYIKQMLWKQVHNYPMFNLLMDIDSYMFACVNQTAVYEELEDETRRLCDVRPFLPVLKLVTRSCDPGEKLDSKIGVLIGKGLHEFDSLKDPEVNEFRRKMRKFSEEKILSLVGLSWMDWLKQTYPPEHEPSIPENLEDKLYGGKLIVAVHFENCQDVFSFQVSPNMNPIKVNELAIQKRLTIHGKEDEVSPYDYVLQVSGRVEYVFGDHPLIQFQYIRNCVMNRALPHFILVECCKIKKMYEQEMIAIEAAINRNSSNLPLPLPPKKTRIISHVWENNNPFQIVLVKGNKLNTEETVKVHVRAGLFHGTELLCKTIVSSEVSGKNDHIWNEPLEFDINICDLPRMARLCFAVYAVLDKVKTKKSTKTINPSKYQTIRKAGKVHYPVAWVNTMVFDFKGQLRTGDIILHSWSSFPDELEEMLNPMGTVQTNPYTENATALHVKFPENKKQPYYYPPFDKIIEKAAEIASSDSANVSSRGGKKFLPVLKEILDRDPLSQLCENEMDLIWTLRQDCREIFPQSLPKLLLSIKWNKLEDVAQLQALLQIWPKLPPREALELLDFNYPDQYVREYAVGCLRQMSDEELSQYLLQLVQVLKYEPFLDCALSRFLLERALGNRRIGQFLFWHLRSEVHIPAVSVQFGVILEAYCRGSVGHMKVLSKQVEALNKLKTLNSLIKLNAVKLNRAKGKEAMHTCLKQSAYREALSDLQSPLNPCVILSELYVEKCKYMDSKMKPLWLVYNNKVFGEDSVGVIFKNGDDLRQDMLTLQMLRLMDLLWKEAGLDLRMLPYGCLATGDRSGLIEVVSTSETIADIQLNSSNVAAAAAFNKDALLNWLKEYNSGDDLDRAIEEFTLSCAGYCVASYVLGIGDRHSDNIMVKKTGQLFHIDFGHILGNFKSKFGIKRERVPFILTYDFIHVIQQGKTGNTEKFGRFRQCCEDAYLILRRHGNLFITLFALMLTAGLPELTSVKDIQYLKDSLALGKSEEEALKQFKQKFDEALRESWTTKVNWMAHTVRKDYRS", "sequence of UniProt Q8N5S9 (whole entry, looked up)": "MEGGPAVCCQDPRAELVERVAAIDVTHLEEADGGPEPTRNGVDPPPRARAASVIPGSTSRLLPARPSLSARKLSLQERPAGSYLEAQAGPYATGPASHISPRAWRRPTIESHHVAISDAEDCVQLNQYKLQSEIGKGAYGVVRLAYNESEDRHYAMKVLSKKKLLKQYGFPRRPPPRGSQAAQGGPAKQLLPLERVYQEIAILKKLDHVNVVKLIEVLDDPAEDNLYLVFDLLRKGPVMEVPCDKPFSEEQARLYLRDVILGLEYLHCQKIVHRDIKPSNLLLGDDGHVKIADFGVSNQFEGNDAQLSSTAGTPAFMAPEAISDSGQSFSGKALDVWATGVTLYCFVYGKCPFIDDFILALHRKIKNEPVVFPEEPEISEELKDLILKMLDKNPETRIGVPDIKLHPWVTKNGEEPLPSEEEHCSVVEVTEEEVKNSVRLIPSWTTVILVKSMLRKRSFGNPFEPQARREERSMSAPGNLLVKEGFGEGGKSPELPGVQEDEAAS", "sequence of UniProt Q13153 (whole entry, looked up)": "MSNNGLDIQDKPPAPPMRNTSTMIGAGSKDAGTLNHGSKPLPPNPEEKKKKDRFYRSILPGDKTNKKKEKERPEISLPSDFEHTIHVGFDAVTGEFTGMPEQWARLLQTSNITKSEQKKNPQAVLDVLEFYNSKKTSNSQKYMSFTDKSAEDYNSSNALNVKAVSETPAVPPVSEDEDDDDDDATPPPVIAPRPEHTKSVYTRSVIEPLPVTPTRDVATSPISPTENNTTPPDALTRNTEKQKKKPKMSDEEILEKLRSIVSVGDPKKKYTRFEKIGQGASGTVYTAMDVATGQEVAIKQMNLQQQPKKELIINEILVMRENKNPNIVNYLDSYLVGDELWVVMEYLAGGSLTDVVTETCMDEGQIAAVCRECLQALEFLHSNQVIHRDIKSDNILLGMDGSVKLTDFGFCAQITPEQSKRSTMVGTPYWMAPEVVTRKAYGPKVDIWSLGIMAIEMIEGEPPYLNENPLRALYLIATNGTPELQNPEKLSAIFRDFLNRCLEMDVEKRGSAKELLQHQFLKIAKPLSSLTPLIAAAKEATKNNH", "sequence of UniProt P48729 (whole entry, looked up)": "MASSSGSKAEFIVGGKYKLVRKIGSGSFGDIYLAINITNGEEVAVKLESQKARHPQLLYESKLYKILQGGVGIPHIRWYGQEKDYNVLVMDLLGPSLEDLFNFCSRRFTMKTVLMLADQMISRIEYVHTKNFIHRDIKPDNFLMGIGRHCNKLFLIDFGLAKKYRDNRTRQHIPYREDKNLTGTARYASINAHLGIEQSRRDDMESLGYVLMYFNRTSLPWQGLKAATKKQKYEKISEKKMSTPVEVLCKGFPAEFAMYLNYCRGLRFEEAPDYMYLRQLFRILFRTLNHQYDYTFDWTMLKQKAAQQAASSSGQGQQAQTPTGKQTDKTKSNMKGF"}
{"data": "Sample 1", "Compound": "CC(C)n1cnc(-c2ccc(F)cc2)c1-c1ncc(C(=O)Nc2ccc(N3CCN(C)CC3)cc2)[nH]1", "technique": "phase 2a trial", "host": "idiopathic pulmonary fibrosis patients"}
{"conditions": "dose not given, adverse event grade 3, all dose arms pooled", "patients with decreased appetite [%]": 0}
{"conditions": "60 mg once daily, adverse event grade 4", "patients with decreased appetite [%]": 0}
{"conditions": "dose not given, adverse event grade 2, all dose arms pooled", "patients with decreased appetite [%]": 0}
{"data": "Sample 2", "organism": "Sarcocystis neurona", "read-out": "parasite growth", "tested at": "concentration not given", "setting": "first screen", "reference": "untreated"}
{"Structure (SMILES)": "CC1=C(C(=O)O)N2C(=O)[C@@H](NC(=O)[C@H](N)c3ccccc3)[C@H]2SC1.O", "log2 fold change": -0.0334}
{"Structure (SMILES)": "CCOC(=O)c1ccc(OC(=O)CCCCCN=C(N)N)cc1.CS(=O)(=O)O", "log2 fold change": -0.15}
{"Structure (SMILES)": "CCC(C)(C)N=C(NC#N)Nc1cccnc1", "log2 fold change": 0.1}
{"data": "Sample 3", "cell line": "mouse MPNST tumor cells", "technique": "high-content immunofluorescence imaging", "refers to": "nuclear SOX9", "tested at": "10 µM", "time": "12 h", "setting": "mean of 2 replicates", "reference": "DMSO control", "reading": "higher = more nuclear SOX9"}
{"Compound": "O=C(NCCNCC(O)COc1ccc(O)cc1)N1CCOCC1 (stereo not shown)", "nuclear SOX9 intensity": "95.3 % of DMSO and 111 % of DMSO"}
{"Compound": "Nc1ccc(S(=O)(=O)Nc2cnc3ccccc3n2)cc1", "nuclear SOX9 intensity": "121 % of DMSO"}
{"Compound": "Cc1ccc(-n2sc(=O)n(Cc3ccc(F)cc3)c2=O)cc1", "nuclear SOX9 intensity": "103 % of DMSO"}
{"data": "Sample 4", "Structure (SMILES)": "O=C(N[C@H]1CCCCC/C=C\\C2C[C@@]2(C(=O)O)NC(=O)[C@@H]2C[C@@H](Oc3ccncc3)CN2C1=O)OC1CCCC1 (stereo partly shown)", "technique": "competition with immobilised ligand", "tested at": "1 µM"}
{"target": "CDC42BPB (Homo sapiens, UniProt Q9Y5S2)", "test": "binding", "remaining binding [%]": 100}
{"target": "CAMKK1 (Homo sapiens, UniProt Q8N5S9)", "test": "binding", "remaining binding [%]": 96}
{"target": "Ribosomal protein S6 kinase alpha-3, N-terminal kinase domain (RPS6KA3, Homo sapiens, UniProt P51812)", "test": "binding", "remaining binding [%]": 100}
{"target": "MAP2K7 (Homo sapiens, UniProt O14733)", "test": "binding", "remaining binding [%]": 91}
{"target": "PIK3CB (Homo sapiens, UniProt P42338)", "test": "binding", "remaining binding [%]": 100}
{"target": "Tyrosine-protein kinase ABL1, non-phosphorylated (ABL1, Homo sapiens, UniProt P00519, T315I)", "test": "binding", "remaining binding [%]": 100}
{"target": "Ribosomal protein S6 kinase alpha-2, C-terminal kinase domain (RPS6KA2, Homo sapiens, UniProt Q15349)", "test": "binding", "remaining binding [%]": 75}
{"target": "EGFR (Homo sapiens, UniProt P00533, L861Q)", "test": "cell-free assay", "remaining binding [%]": 100}
{"target": "PIK3CD (Homo sapiens, UniProt O00329)", "test": "binding", "remaining binding [%]": 92}
{"target": "NEK4 (Homo sapiens, UniProt P51957)", "test": "binding", "remaining binding [%]": 79}
{"target": "CSNK1A1 (Homo sapiens, UniProt P48729)", "test": "cell-free assay", "remaining binding [%]": 80}
{"target": "EPHA5 (Homo sapiens, UniProt P54756)", "test": "cell-free assay", "remaining binding [%]": 100}
{"target": "PAK1 (Homo sapiens, UniProt Q13153)", "test": "binding", "remaining binding [%]": 89}
{"target": "MAP4K4 (Homo sapiens, UniProt O95819)", "test": "binding", "remaining binding [%]": 100}
{"data": "Sample 5", "host": "human", "medium": "microsomes or S9", "tested at": "2 µM", "time": "0.5 h"}
{"Compound": "O=c1c2sccc2ncn1-c1ccc(F)c(Cl)c1", "remaining compound [%]": 31.1}
{"Compound": "Cn1cc(-c2noc(C(O)C3CCCCCCC3)n2)nn1 (stereo not shown)", "remaining compound [%]": "> 100"}
{"Compound": "COc1cc(OC)cc(OC/C(=C\\c2ccc(C(=O)O)cc2)CNc2cnc3ccccc3c2)c1", "remaining compound [%]": 7.89}
{"data": "Single results of other studies"}
{"Structure (SMILES)": "O=C(COc1ccc(Cl)cc1)NC1CCC(NC(=O)COc2ccc(Cl)cc2)CC1 (stereo not shown)", "cell line": "HEK293T ATF4-firefly luciferase reporter", "test": "integrated stress response, refers to: ATF4", "conditions": "concentration not given", "scale": "reference: DMSO", "measurement": "reporter signal", "value": "61.8% and 76.4% and 68.3% and 69.8% and 60.8% and 65.6% and 72.6%"}
{"Structure (SMILES)": "O=C(OC[C@H]1O[C@@H](OC(=O)c2cc(O)c(O)c(OC(=O)c3cc(O)c(O)c(O)c3)c2)[C@H](OC(=O)c2cc(O)c(O)c(OC(=O)c3cc(O)c(O)c(O)c3)c2)[C@@H](OC(=O)c2cc(O)c(O)c(OC(=O)c3cc(O)c(O)c(O)c3)c2)[C@@H]1OC(=O)c1cc(O)c(O)c(OC(=O)c2cc(O)c(O)c(O)c2)c1)c1cc(O)c(O)c(OC(=O)c2cc(O)c(O)c(O)c2)c1", "cell line": "HaCaT", "conditions": "100 µM, 60 h", "measurement": "viability", "value": "55.3%"}
{"note": "A few entries again (sample 1):"}
{"conditions": "60 mg once daily, adverse event grade 4", "patients with decreased appetite [%]": 0}
{"conditions": "dose not given, adverse event grade 3, all dose arms pooled", "patients with decreased appetite [%]": 0}
{"conditions": "dose not given, adverse event grade 2, all dose arms pooled", "patients with decreased appetite [%]": 0}
